Assay results gathered from unrelated publications.
Compare with care: the assays were run in different laboratories.

| Compound | tested on | system | setting | endpoint | result |
| --- | --- | --- | --- | --- | --- |
| Cc1ncc2n1-c1ccc(Cl)cc1C(c1ccccc1F)=NC2 |  | human, plasma | oral, 2 mg, day 1 | AUC(0-last) | 21.5 ng·h/mL |
| CCC(CC)COC(=O)[C@H](C)N[P@](=O)(OC[C@H]1O[C@@](C#N)(c2ccc3c(N)ncnn23)[C@H](O)[C@@H]1O)Oc1ccccc1 |  | human, plasma | intravenous, 100 mg single dose | AUC(0-last) | 1280 ng·h/mL |
| Cn1cc(C(F)(F)F)nc1-c1ccc(OCC(O)CNCCOc2ccc(O)c(C(N)=O)c2)cc1 (centres unmarked) | Plasmodium falciparum | 3D7 |  | IC50 | 2.51 µM |
| OCc1ncc2n1-c1ccc(Cl)cc1C(c1ccccc1F)=NC2 |  | humans, plasma | 3 mg of midazolam, midazolam alone | AUC(0-last) | 14.1 ng·h/mL |
| CC(C)c1nc(N(C)S(C)(=O)=O)nc(-c2ccc(F)cc2)c1/C=C/[C@@H](O)C[C@@H](O)CC(=O)O |  | healthy human subjects, plasma | oral, 20 mg, day 1, alone, geometric mean | AUC(0-last) | 45.6 ng·h/mL |
| CC(C)[C@H](N)C(=O)NCCCS(=O)(=O)O |  | human | oral, 265 mg twice daily, week 65, effect of covariates on exposure | AUC(0-last) | no effect |
| OCc1ncc2n1-c1ccc(Cl)cc1C(c1ccccc1F)=NC2 |  | human | dose not given, with: risdiplam | AUC(0-last) | 9.43 ng·h/mL |
| O[C@H]1CCCN[C@@H]1CCCn1cnc2c(Cl)c(Cl)ccc21 |  | healthy humans, plasma | oral, 150 mg single dose | AUC(0-last) | 876 ng·h/mL |
| OCc1ncc2n1-c1ccc(Cl)cc1C(c1ccccc1F)=NC2 |  | healthy human volunteers, plasma | 5 mg, day 11, fed, with: once daily, momelotinib 200 mg, days 4 to 11 | AUC(0-last) | 22.4 ng·h/mL |
| CC(C)CN1CCc2ccc(Br)cc21 | Plasmodium falciparum | 7G8 |  | IC50 | 10 µM |
| OCc1ncc2n1-c1ccc(Cl)cc1C(c1ccccc1F)=NC2 |  | human, plasma | oral, 2 mg midazolam, day 1, midazolam alone, geometric mean | AUC(0-last) | 6.21 ng·h/mL |
